{"data": "Values quoted from earlier work as cited in several papers", "note": "Protocols differ between the studies behind these lines. Several values in a cell are separate wells, animals, samples, runs or records. Numbers after ± are the reported error.", "sequence of UniProt Q9H4A3 (whole entry, looked up)": "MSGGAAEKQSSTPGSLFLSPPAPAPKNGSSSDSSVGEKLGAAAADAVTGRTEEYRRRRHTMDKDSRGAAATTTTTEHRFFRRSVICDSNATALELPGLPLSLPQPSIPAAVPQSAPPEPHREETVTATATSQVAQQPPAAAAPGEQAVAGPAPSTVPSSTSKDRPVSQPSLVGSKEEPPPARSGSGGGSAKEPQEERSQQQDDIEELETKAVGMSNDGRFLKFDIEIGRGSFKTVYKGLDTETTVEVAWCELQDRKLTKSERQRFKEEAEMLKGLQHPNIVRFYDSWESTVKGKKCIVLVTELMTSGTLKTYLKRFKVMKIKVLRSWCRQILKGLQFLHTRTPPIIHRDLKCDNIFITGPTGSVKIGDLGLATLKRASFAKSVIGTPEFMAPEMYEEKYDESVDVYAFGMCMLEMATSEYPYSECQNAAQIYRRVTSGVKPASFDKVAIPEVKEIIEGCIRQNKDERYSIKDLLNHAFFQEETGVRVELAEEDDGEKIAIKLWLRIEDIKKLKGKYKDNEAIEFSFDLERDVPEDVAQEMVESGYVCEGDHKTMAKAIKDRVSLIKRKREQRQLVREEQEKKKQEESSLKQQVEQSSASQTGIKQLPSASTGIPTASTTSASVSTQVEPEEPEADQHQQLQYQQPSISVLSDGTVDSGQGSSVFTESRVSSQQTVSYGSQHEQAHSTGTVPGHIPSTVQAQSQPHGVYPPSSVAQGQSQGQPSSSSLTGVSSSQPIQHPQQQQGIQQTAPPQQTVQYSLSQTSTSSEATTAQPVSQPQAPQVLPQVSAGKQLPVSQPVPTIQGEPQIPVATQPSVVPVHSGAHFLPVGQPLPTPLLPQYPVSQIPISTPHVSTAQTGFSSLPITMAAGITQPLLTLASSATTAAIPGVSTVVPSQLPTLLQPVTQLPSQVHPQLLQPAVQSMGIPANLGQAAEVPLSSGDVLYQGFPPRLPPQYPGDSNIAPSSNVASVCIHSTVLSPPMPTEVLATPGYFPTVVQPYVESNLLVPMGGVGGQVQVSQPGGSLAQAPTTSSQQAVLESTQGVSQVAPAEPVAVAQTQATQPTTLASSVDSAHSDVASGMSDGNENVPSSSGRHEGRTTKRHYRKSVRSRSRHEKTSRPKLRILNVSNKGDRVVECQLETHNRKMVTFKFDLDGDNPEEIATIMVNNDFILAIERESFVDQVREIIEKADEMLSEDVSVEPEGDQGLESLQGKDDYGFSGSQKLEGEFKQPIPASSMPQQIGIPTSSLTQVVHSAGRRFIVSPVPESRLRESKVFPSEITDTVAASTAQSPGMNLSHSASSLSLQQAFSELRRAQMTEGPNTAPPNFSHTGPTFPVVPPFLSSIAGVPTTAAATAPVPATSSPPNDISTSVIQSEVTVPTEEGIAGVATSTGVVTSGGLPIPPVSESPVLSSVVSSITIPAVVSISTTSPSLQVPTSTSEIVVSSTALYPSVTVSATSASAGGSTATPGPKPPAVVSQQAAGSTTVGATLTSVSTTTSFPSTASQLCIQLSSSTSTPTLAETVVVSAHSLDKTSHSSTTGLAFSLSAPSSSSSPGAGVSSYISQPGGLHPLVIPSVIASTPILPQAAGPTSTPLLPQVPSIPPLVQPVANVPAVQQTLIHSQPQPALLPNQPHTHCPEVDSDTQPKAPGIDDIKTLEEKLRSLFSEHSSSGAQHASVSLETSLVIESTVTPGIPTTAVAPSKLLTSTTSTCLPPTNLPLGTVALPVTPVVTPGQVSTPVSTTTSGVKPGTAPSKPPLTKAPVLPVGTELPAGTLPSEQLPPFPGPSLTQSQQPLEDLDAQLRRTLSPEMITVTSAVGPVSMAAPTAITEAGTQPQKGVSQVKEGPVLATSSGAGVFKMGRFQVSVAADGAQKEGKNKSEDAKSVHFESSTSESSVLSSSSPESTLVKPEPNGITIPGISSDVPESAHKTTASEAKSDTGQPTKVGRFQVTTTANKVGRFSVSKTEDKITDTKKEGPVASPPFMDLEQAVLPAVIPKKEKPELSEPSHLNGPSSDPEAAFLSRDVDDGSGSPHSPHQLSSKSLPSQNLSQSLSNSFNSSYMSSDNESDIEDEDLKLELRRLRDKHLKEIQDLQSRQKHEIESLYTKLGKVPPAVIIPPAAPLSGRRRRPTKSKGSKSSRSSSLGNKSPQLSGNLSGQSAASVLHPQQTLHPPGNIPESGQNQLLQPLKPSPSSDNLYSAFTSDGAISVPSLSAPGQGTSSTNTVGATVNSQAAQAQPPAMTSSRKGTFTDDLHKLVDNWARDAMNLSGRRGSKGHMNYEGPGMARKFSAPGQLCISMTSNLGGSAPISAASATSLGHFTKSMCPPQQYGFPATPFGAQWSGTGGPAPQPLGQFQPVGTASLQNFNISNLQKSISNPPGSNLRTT"}
{"SMILES": "CC1(C)S[C@@H]2[C@H](NC(=O)[C@H](N)c3ccccc3)C(=O)N2[C@H]1C(=O)O", "tested on": "Escherichia coli", "test system": "clinical isolate RKI-No_592/16", "measurement": "MIC", "value": "> 16 µg/mL"}
{"SMILES": "CC(=O)N[C@@H](CSC(=O)[C@]1([C@@H](O)C(C)C)NC(=O)[C@H](C)[C@@H]1O)C(=O)O", "tested on": "proteasome", "measurement": "EC50", "value": "600 nM"}
{"SMILES": "CCNS(=O)(=O)c1ccc(OC)cc1C1(O)CCN(Cc2cccc(Oc3ccccc3OC)c2)CC1", "tested on": "human CCR8 F88A mutant (TM2)", "assay": "IP accumulation, agonist", "measurement": "EC50", "value": "197 nM"}
{"SMILES": "CC(C)(C)c1cc(C(C)(C)C)c(NC(=O)c2c[nH]c3ccccc3c2=O)cc1O", "tested on": "G551D-CFTR", "assay": "potentiator", "test system": "Fischer rat thyroid cells", "measurement": "EC50", "value": "100 nM"}
{"SMILES": "CCCCCCCC/C=C\\CCCCCCCC(=O)O", "tested on": "GPR3", "assay": "agonist", "measurement": "EC50", "value": "~300000 nM"}
{"SMILES": "CC(C)C[C@@H](C=O)NC(=O)[C@H](CC(C)C)NC(=O)[C@H](CC(C)C)NC(=O)OCc1ccccc1", "tested on": "proteasome", "measurement": "EC50", "value": "4 nM"}
{"SMILES": "COc1ccccc1Oc1cccc(CN2CCC(NC(=O)C(CCN3CCCC3)c3ccccc3)CC2)c1 (stereo not shown)", "tested on": "human CCR8 F88A mutant (TM2)", "assay": "IP accumulation, agonist", "measurement": "EC50", "value": "31 nM"}
{"SMILES": "C[C@H]1COCCN1c1nc(-c2cnc(N)cc2C(F)F)nc(N2CCOCC2)n1", "tested on": "A-427", "measurement": "GI50", "value": "168 nM"}
{"SMILES": "Oc1cc2c(cc1CN1CCN(c3cccc(Cl)c3)CC1)oc1ccccc12", "tested on": "NR4A2 (Nurr1)", "assay": "agonist, cell-based", "measurement": "EC50", "value": "110 ± 50 nM"}
{"SMILES": "O=C(O)c1cc(Cl)ccc1S(=O)(=O)NCCCCN1C(=O)c2cccc3cccc(c23)C1=O", "tested on": "human LPA2 receptor", "assay": "agonist", "measurement": "EC50", "value": "0.005 nM and ~0.005 nM"}
{"SMILES": "Nc1cc(C(F)(F)F)c(-c2nc(N3CCOCC3)nc(N3CCOCC3)n2)cn1", "tested on": "Serine/threonine-protein kinase WNK1 (WNK1, Homo sapiens, UniProt Q9H4A3)", "assay": "enzyme activity", "setting": "10 µM", "how to read": "reference: untreated", "measurement": "remaining activity", "value": "100%"}
{"SMILES": "O=C(Nc1cnc2ccccc2c1)c1cc2[nH]ccc2cc1Cl", "tested on": "NR4A3 (NOR-1)", "assay": "agonist, cellular", "measurement": "EC50", "value": "70 ± 30 nM"}
{"SMILES": "COc1ccccc1Oc1cccc(CN2CCC(O)(c3ccccc3C(=O)O)CC2)c1", "tested on": "human CCR8 F84A mutant (TM2)", "assay": "IP accumulation, agonist", "measurement": "EC50", "value": "7 nM"}
{"SMILES": "CC(C)CCN[C@@H]1CCc2cc(O)c(N3CC(=O)NS3(=O)=O)c(F)c2C1", "tested on": "PTPN2/PTPN1", "assay": "cell-based", "measurement": "EC50", "value": "~176 nM"}
{"SMILES": "CCN(CC)CCCC(C)Nc1ccnc2cc(Cl)ccc12 (stereo not shown)", "tested on": "NR4A2 (Nurr1)", "assay": "agonist, cell-based", "measurement": "EC50", "value": "47000 ± 5000 nM"}
{"SMILES": "CO/N=c1/ccn([C@@H]2O[C@H](COP(=O)(O)OP(=O)(O)OP(=O)(O)OC[C@H]3O[C@@H](n4ccc(=O)[nH]c4=O)[C@H](O)[C@@H]3O)[C@@H](O)[C@H]2O)c(=O)[nH]1", "tested on": "P2Y6 receptor", "assay": "phospholipase C stimulation, agonist", "measurement": "EC50", "value": "12 nM"}
{"SMILES": "Clc1ccc2[nH]ccc2c1", "tested on": "NR4A2 (Nurr1)", "assay": "agonist, cell-based", "measurement": "EC50", "value": "> 5000 nM"}
{"SMILES": "CNC(C)C1CCC(N)C(OC2C(N)CC(N)C(OC3OCC(C)(O)C(NC)C3O)C2O)O1 (stereo not shown)", "tested on": "Escherichia coli", "test system": "clinical isolate RKI-No_583/16", "measurement": "MIC", "value": "> 8 µg/mL"}
{"SMILES": "[Ca]", "tested on": "KCa3.1 channel", "assay": "ion current, activator", "measurement": "EC50", "value": "~250 nM"}
{"note": "For quick reference, copied from above:"}
{"SMILES": "CCNS(=O)(=O)c1ccc(OC)cc1C1(O)CCN(Cc2cccc(Oc3ccccc3OC)c2)CC1", "tested on": "human CCR8 F88A mutant (TM2)", "assay": "IP accumulation, agonist", "measurement": "EC50", "value": "197 nM"}
{"SMILES": "CC(C)(C)c1cc(C(C)(C)C)c(NC(=O)c2c[nH]c3ccccc3c2=O)cc1O", "tested on": "G551D-CFTR", "assay": "potentiator", "test system": "Fischer rat thyroid cells", "measurement": "EC50", "value": "100 nM"}
